Measurements collected from several papers.
Each numbered part is a random draw from the data of one study; scales do not carry over between parts.

Block 1 — organism: Vesicular stomatitis virus; read-out: pseudovirus infection; method: FDA-approved drug library screen; concentration: concentration not given; setting: SARS-CoV-2 spike pseudotype; reference: vehicle
SMILES | GFP-positive cells [%]
Nc1ccc(S(=O)(=O)c2ccc(N)cc2)cc1 | 78
NC(=O)NO | 90.8
CC(=O)[C@@]1(O)CC[C@H]2[C@@H]3CCC4=CC(=O)CC[C@]4(C)[C@H]3CC[C@@]21C | 106
CC[C@@H]1C(=O)OC[C@@H]1Cc1cncn1C.Cl | 93.1
CNC(=C[N+](=O)[O-])NCCSCc1ccc(CN(C)C)o1 | 82.5

Block 2 — method: RNAcompete; molecule type: RNA; medium: in vitro; concentration: 20 nM; setting: 7-mer, probes averaged, single round; reference: mean of 7-mers; reading: higher = stronger binding
Target: PABPC1L2, full length, GST fusion (mouse, UniProt A0ABA7IW68)
Target sequence (chain): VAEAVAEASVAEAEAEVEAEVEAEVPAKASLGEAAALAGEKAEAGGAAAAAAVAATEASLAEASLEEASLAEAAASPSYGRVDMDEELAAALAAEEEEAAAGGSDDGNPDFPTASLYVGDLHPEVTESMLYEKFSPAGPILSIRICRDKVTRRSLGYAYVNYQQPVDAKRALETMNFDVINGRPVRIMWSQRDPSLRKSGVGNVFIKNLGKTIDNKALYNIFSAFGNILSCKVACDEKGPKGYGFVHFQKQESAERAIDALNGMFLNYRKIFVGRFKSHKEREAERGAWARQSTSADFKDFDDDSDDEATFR
Oligonucleotide | 7-mer Z-score
GUGAUAG | -0.021
AAUAAGU | 0.296
UAUGAAC | -0.0409
CUGUCAG | -0.322
UACAACU | -0.159
CCUGGUC | -0.374
GCAUUAA | 0.0895
UAGUUCU | -0.356

Block 3 — method: RNA Bind-n-Seq; molecule type: RNA; medium: in vitro; concentration: 20 nM; setting: 6-mer, flanks averaged, single round; with: 150 mM KCl; reference: input library; reading: higher = stronger binding
Target: TAR DNA-binding protein 43, full length, His tag (TARDBP, Homo sapiens, UniProt Q13148, residues 1-414)
Oligonucleotide | 6-mer enrichment (R)
GCACGA | 1.01
UCUACA | 0.547
CAUGUC | 0.627
UGAGUC | 0.773
CAAGAU | 0.619
CUGGUU | 0.699
GUGAUA | 0.859
GUUGAG | 1.45

Block 4 — read-out: enzyme activity; mode: inhibitor; concentration: 20 µM; setting: primary screen
Target: Replicase polyprotein 1ab, main protease (rep, Severe acute respiratory syndrome coronavirus 2, UniProt P0DTD1)
Compound | inhibition [%]
Cc1cc(-c2ccc(/C=C3/SC(Nc4ccc(Cl)c(C(=O)O)c4)=NC3=O)o2)c([N+](=O)[O-])cc1C | 48.2
COc1cc(C[C@@H]2NCCc3cc(O)c(O)cc32)cc(OC)c1OC | 73.9
CN(C)C(=S)SSC(=S)N(C)C | 99.9
C[C@@H](CN1CC(=O)NC(=O)C1)N1CC(=O)NC(=O)C1 | 89

Block 5 — read-out: enzyme activity; mode: inhibitor; concentration: 20 µM
Target: Replicase polyprotein 1ab, polymerase (rep, Severe acute respiratory syndrome coronavirus 2, UniProt P0DTD1)
Compound | inhibition
O=C(O)c1cc2ccccc2s1 | -1.86%
Nc1ncnc2c1c(-c1cccc(OCc3ccccc3)c1)cn2[C@H]1C[C@@H](CN2CCC2)C1 | 1.62%
C=CCN1CCc2cc(O)c(O)cc2C(c2ccccc2)C1 (centres unmarked) | 1.82%
CO[C@H]1/C=C/O[C@@]2(C)Oc3c(C)c(O)c4c(O)c(c(/C=N/N=C/N5CCCCC5)c(O)c4c3C2=O)NC(=O)/C(C)=C\C=C\[C@H](C)[C@H](O)[C@@H](C)[C@@H](O)[C@@H](C)[C@H](OC(C)=O)[C@@H]1C | 8.31%
CCN(CC)CCNC(=O)c1ccc(N)cc1 | 27.2%
Cc1ccc(S(=O)(=O)NC2c3ccccc3Oc3ccccc32)cc1 | -4.19%
CC(=O)NCC(=O)N[C@H](CCC(=O)O)C(=O)O | -3.99%
Cc1nccc2c1[nH]c1ccccc12 | -9.85%
CC(=O)[C@H]1CC[C@H]2[C@@H]3CC[C@H]4C[C@H](O)CC[C@]4(C)[C@H]3C(=O)C[C@]12C | 1.83%
CCCN(CCC)C(=O)Cc1c(-c2ccc(Cl)cc2)nc2ccc(Cl)cn12 | -0.98%
CC(N)Cc1ccc(O)cc1 (centres unmarked) | -0.97%
O=C(Nc1ccccc1F)N[C@H]1N=C(c2ccccc2)c2ccccc2NC1=O | 0.29%
CCc1[nH]c(=O)[nH]c1C(=O)c1ccncc1 | 2.08%
O=C(Oc1ccc([N+](=O)[O-])cc1)N1CCC(C(O)(c2ccc3c(c2)OCO3)c2ccc3c(c2)OCO3)CC1 | -0.82%
Cc1cc2c(cc1CC(=O)c1sccc1S(=O)(=O)Nc1onc(C)c1Cl)OCO2 | -2.65%
CC[C@]12CCCN3CCc4c(n(c5ccccc45)[C@@](O)(C(=O)OC)C1)[C@@H]32 | -0.43%
COc1cc2c(cc1OC)-c1cc3ccc(OC)c(OC)c3c[n+]1CC2 | -6.2%
C[C@H](C[C@H](N)C(=O)O)C(=O)O | -7.26%
Oc1cc(O)c2cc(O)c(-c3cc(O)c(O)c(O)c3)[o+]c2c1 | 91.8%
CCNC(=O)c1[nH]nc(-c2cc(Cl)c(O)cc2O)c1-c1ccc(OC)cc1 | -1.82%
CSc1ccc(C(=O)/C=C/c2cc(C)c(OC(C)(C)C(=O)O)c(C)c2)cc1 | -2.85%
CCCCN(CC)c1c([N+](=O)[O-])cc(C(F)(F)F)cc1[N+](=O)[O-] | -8.32%
Nc1ncnc(Nc2ccc(Cl)cc2)n1 | 2.08%
O=C(c1c(F)ccc(NS(=O)(=O)N2CC[C@@H](F)C2)c1F)c1c[nH]c2ncc(-c3cnc(C4CC4)nc3)cc12 | 4.99%
c1ccc2cc(C3=NCCN3)ncc2c1 | 8.39%

For quick reference, copied from above (block 1):
SMILES | GFP-positive cells [%]
Nc1ccc(S(=O)(=O)c2ccc(N)cc2)cc1 | 78
NC(=O)NO | 90.8
CC(=O)[C@@]1(O)CC[C@H]2[C@@H]3CCC4=CC(=O)CC[C@]4(C)[C@H]3CC[C@@]21C | 106
CC[C@@H]1C(=O)OC[C@@H]1Cc1cncn1C.Cl | 93.1
CNC(=C[N+](=O)[O-])NCCSCc1ccc(CN(C)C)o1 | 82.5
